Measured values of several laboratories.
Lines come from different studies, so protocols differ. “And” joins repeats or separate records; there may be more than shown. ± marks the error that the study gave.
IDO1: Indoleamine 2,3-dioxygenase 1 (IDO1, Homo sapiens, UniProt P14902)

Chains of the proteins cited; added tags and fusions are not shown. Residues count along the entry.
UniProt P14902, whole entry: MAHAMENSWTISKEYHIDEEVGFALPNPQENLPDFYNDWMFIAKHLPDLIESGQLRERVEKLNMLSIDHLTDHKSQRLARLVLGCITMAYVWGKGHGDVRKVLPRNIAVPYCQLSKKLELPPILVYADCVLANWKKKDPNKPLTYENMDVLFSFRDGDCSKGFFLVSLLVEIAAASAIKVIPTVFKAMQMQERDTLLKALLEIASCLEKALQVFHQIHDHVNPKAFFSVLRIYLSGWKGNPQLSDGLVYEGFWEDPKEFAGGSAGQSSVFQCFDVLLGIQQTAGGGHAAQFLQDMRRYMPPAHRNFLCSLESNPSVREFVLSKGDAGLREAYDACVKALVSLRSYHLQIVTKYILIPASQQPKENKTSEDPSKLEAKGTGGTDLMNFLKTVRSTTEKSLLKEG
UniProt P14902, 12-403 limits assumed: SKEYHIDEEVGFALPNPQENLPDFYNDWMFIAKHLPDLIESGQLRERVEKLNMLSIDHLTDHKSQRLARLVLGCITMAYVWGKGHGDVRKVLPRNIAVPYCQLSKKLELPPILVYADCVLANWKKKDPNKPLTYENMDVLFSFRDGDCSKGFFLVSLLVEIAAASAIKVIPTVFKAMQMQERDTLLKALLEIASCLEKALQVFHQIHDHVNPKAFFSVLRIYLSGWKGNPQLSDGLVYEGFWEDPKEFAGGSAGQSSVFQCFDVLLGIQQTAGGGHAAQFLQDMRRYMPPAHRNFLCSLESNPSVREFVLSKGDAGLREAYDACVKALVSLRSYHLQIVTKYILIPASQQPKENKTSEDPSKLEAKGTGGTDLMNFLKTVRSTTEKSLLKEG
UniProt P25779, whole entry, looked up: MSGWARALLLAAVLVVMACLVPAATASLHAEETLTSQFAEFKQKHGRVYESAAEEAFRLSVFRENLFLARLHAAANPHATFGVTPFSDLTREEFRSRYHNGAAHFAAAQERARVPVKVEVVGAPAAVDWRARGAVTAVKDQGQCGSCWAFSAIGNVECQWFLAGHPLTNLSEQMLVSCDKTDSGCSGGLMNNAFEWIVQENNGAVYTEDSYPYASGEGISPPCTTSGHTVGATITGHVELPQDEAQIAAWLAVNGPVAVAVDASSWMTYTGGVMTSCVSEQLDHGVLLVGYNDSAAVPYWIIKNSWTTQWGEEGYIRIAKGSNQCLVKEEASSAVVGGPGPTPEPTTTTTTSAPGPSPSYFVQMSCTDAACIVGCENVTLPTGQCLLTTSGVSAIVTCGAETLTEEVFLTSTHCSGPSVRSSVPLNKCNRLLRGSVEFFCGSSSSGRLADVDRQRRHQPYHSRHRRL
UniProt Q8N884, whole entry: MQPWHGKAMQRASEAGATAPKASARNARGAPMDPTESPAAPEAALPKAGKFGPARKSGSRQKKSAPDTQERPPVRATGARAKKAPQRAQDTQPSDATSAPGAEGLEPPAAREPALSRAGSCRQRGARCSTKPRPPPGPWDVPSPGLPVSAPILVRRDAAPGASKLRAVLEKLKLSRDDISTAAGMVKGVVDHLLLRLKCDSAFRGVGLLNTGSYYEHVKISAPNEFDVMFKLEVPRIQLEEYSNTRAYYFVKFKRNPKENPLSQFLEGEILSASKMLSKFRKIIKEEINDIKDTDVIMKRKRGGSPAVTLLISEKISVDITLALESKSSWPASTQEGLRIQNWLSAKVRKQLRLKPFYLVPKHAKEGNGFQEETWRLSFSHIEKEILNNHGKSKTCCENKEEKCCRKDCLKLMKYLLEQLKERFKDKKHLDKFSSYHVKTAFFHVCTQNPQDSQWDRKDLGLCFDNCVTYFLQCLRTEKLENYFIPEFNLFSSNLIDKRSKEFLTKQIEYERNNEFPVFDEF
UniProt Q2M2I8, whole entry: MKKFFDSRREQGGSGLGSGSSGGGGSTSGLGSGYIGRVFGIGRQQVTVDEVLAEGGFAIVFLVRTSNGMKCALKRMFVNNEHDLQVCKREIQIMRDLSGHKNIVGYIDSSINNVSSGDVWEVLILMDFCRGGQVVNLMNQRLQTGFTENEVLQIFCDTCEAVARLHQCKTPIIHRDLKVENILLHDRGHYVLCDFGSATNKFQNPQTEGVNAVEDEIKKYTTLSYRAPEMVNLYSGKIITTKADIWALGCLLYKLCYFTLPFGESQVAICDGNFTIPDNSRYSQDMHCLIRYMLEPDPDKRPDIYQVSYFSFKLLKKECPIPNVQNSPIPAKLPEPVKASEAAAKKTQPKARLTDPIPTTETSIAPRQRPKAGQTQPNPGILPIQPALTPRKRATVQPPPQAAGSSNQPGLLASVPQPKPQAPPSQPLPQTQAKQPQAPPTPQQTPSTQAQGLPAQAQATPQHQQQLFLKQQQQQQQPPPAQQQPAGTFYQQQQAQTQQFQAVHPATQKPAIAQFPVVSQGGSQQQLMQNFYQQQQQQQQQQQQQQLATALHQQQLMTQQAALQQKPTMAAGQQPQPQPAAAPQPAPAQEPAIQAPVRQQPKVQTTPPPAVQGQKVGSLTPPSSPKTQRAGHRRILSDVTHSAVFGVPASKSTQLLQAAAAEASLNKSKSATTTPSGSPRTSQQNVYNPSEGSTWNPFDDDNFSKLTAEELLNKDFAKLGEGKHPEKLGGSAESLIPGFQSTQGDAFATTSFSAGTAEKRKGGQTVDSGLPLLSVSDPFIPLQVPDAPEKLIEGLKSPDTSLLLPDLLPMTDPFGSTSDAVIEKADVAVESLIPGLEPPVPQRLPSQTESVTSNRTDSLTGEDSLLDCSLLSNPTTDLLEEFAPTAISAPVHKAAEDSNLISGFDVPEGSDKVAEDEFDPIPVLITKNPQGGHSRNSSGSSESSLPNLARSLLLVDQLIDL
UniProt P09874, whole entry: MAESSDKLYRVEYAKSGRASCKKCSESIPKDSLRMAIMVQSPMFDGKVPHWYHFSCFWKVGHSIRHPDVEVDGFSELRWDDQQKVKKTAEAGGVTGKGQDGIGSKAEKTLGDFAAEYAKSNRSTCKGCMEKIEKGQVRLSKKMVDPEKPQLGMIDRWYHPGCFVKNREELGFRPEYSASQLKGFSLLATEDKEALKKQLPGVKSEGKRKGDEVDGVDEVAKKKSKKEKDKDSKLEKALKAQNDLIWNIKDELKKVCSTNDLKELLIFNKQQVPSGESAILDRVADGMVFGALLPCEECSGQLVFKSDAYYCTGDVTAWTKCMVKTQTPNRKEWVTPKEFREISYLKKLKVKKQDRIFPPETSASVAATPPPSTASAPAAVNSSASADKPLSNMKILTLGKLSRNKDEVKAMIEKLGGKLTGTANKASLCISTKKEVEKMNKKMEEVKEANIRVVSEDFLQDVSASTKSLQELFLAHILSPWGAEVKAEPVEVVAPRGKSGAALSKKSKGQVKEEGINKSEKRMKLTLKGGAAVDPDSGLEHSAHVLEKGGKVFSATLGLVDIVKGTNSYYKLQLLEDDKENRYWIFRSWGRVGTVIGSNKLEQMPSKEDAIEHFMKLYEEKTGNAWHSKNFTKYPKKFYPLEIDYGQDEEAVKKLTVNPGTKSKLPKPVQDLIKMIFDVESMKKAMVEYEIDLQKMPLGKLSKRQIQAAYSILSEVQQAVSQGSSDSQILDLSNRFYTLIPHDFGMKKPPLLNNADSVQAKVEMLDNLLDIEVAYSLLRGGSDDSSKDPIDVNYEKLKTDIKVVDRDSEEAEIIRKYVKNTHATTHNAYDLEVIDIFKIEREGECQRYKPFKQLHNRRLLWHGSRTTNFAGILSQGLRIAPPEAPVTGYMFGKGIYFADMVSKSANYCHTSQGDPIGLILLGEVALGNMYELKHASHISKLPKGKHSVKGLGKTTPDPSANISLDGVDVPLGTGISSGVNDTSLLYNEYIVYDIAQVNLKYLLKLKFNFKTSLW
UniProt A0A381MCS3, 1-451: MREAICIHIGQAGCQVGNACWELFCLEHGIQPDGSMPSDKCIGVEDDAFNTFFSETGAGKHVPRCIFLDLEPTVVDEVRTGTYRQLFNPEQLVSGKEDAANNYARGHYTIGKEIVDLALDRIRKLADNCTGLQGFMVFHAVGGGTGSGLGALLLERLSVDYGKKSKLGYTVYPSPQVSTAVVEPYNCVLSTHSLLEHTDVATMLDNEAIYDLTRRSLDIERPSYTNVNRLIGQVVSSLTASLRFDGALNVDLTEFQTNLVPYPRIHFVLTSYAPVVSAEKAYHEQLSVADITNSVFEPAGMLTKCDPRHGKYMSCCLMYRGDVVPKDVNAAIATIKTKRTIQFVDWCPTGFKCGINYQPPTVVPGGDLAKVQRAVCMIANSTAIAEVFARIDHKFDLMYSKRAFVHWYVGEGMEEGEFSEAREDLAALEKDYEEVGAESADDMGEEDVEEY
UniProt A4HTR0, 1-443: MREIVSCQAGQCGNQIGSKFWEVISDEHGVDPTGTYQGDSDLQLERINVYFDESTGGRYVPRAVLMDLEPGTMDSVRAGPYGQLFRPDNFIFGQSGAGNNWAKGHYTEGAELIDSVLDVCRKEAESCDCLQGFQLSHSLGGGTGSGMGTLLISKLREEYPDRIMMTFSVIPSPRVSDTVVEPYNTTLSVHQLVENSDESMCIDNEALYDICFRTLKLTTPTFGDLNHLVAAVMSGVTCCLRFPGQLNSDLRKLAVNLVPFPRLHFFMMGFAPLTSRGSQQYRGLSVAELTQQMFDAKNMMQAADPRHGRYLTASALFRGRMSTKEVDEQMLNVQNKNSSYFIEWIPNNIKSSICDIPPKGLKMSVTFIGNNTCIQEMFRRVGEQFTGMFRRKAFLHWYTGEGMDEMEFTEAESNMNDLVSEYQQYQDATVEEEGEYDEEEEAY
UniProt P03372, whole entry: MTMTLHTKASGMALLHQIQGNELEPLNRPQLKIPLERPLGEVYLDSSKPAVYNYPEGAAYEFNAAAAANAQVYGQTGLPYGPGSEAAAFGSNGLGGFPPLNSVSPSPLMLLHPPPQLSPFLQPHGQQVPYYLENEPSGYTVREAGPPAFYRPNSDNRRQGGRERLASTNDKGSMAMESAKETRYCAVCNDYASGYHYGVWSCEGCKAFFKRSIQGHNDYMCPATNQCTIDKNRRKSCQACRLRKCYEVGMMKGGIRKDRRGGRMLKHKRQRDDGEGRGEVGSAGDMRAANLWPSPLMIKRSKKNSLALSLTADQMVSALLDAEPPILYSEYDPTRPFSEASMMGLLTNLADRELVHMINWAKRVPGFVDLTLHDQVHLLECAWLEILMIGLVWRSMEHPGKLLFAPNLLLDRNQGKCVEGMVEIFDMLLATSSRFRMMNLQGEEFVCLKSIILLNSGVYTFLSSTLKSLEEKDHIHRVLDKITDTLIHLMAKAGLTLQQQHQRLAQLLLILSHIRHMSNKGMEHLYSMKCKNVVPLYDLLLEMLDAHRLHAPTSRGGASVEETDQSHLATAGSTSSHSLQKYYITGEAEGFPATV
UniProt O96693, 73-488 limits assumed: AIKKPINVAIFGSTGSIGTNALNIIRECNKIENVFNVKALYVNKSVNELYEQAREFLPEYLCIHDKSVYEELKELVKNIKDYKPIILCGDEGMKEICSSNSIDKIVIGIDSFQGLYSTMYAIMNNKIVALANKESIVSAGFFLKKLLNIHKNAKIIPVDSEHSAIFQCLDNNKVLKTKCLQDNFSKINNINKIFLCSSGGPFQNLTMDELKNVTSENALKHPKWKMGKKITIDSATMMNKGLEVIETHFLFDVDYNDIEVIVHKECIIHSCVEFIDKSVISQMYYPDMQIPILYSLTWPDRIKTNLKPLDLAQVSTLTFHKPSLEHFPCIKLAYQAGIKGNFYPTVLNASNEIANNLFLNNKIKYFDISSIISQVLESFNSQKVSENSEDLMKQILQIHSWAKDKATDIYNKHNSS
UniProt P31749, whole entry: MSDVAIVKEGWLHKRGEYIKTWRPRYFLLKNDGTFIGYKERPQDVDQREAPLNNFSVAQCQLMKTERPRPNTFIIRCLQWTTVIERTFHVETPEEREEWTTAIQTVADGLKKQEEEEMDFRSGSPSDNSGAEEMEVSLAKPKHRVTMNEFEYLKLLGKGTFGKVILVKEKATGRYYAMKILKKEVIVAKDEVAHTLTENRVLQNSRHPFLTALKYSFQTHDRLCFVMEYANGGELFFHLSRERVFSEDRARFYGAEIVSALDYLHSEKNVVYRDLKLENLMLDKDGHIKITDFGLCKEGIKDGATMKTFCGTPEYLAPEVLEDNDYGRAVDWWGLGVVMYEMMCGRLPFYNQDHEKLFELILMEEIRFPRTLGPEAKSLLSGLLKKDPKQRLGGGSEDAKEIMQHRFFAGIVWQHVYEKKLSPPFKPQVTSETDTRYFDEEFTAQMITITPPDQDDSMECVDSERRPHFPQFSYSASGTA
UniProt Q13304, whole entry: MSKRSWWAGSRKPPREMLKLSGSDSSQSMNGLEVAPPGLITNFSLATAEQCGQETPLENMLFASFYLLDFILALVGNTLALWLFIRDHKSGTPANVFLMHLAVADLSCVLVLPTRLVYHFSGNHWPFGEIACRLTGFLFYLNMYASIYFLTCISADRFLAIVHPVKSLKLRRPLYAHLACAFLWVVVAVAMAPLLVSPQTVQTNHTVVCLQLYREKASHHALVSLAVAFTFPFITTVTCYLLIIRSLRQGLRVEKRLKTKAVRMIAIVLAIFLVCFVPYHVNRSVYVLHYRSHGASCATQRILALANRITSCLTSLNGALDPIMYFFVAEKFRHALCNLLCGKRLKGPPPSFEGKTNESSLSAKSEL

Structure (SMILES) | target | test | test system | setting | IC50
Cc1cc(N2CCCCC2)nc2ccc(NC(=O)CCC(=O)N3CCN(c4cccc(Cl)c4)CC3)cc12 | Cruzipain (Trypanosoma cruzi, UniProt P25779) | enzyme activity, inhibitor, fluorogenic substrate cleavage | – | 0.01% Triton X-100, with: Z-FR-AMC | 25 µM
CS(=O)(=O)Oc1cccc(/C=C/c2c[nH]c3ccc(C#N)cc23)c1 | IDO1 | enzyme activity, inhibitor | – | – | > 50 µM
O=C(O)CC[C@H](NC(=O)c1cc(C(=O)O)cc([C@H]2CCN[C@@H]2C(=O)O)c1)C(=O)O | AMPA receptor (rat) | binding, radioligand binding | rat cortical synaptosomes | with: [3H]AMPA | 10 to 50 µM
CCOc1ccc(S(=O)(=O)NC(=O)Cc2ccc(I)cc2)cc1Br | Cyclic GMP-AMP synthase (CGAS, Homo sapiens, UniProt Q8N884) | enzyme activity, inhibitor, Kinase-Glo ATP depletion | – | 25 °C, 100 nM enzyme | 0.666 µM and 0.66 µM
CC(C)Oc1cc(C(=O)N2CCC(N3CCN(C)CC3)CC2)ccc1Nc1ncc2c(n1)N(C1CCCC1)c1ccccc1C(=O)N2C | Leucine-rich repeat serine/threonine-protein kinase 2 (LRRK2, Homo sapiens, UniProt Q5S007) | kinase activity, Adapta | – | – | 0.296 ± 0.031 µM
NS(=O)(=O)c1ccc(Cc2c(-c3cccc(-c4ccccc4)c3)nn(-c3nc(C(=O)O)cs3)c2C2CC2)c(F)c1 | L-lactate dehydrogenase A chain (LDHA, Homo sapiens, UniProt P00338) | enzyme activity, inhibitor | – | – | 0.04 µM
CC(C)n1nnc(-c2ccc(F)c(Nc3ncnn4ccc(CN5CCC(N)CC5)c34)c2)n1 | AP2-associated protein kinase 1 (AAK1, Homo sapiens, UniProt Q2M2I8) | – | – | – | 0.83 µM
O=C1OC2CC1N(C(=O)c1cc(Cc3n[nH]c(=O)c4ccccc34)ccc1F)C2 (stereo not shown) | Poly [ADP-ribose] polymerase 1 (PARP1, Homo sapiens, UniProt P09874) | enzyme activity | – | – | < 1 µM
COC(=O)[C@@H]1C(c2nc3cc(Cl)ccc3o2)=Cc2cc3c(cc2[C@H]1c1cc(OC)c(OC)c(OC)c1)OCO3 | Tubulin alpha/beta heterodimer (Leishmania infantum, UniProt A0A381MCS3+A4HTR0) | tubulin polymerization, inhibitor | – | 37 °C, with: tubulin 1.2 mg/mL | 12.1 ± 1.2 µM
CCc1ccc(SCC(=O)Nc2ccc3nc(SCC(=O)NCC(C)C)sc3c2)cc1 | Estrogen receptor (ESR1, Homo sapiens, UniProt P03372) | reporter gene, antagonist | HEC-1 transfected ERα luciferase reporter | – | > 50 µM
CCn1cc(NCc2ccccc2)c(C(=O)O)n1 | IDO1 | – | – | – | ~300 µM
N#Cc1ccc2[nH]cc(/C=C/c3ccccc3)c2c1 | IDO1 | enzyme activity, inhibitor | – | – | 1.6 µM
Cc1ncc(COc2ccc3c(c2)c(=O)c(C(N)=O)cn3-c2ccc(F)cc2)cn1 | Metabotropic glutamate receptor 2 (Grm2, Rattus norvegicus, UniProt P31421) | calcium mobilization, negative allosteric modulator | – | – | 0.723 µM
O=CN(O)C/C=C/P(=O)(O)O | 1-deoxy-D-xylulose 5-phosphate reductoisomerase, apicoplastic (DXR, Plasmodium falciparum, UniProt O96693) | – | – | – | 0.092 µM
Clc1ccc(C2(c3ccc(-c4ccncc4)cc3)CCNCC2)cc1 | RAC-alpha serine/threonine-protein kinase (AKT1, Homo sapiens, UniProt P31749) | kinase activity, inhibitor, radiometric HotSpot | – | with: ATP 10 µM | 0.038 µM
O=C(Nc1ccc(-c2nc3ccccc3s2)cc1)c1cccc([N+](=O)[O-])c1 | Tyrosine-protein kinase SYK, with FCER1G (SYK, Homo sapiens, UniProt P43405) | protein binding, inhibitor, TR-FRET | – | – | > 100 µM
O=C(Nc1ccc(Cl)cc1)C(NS(=O)(=O)c1ccc(Br)cc1)c1ccccc1 (stereo not shown) | Uracil nucleotide/cysteinyl leukotriene receptor, long isoform (GPR17, Homo sapiens, UniProt Q13304) | calcium mobilization, antagonist | 1321-N1 | – | 17.9 ± 0.34 µM
COc1cc2c(Nc3c(Cl)ccc4c3OCO4)ncnc2cc1OCCCN1CCN(C(=O)CCCC(=O)NCc2ccc(COc3nc(N)nc4[nH]cnc34)cc2)CC1 | Proto-oncogene tyrosine-protein kinase Src, SH3-SH2-kinase domains (SRC, Gallus gallus, UniProt P00523) | enzyme activity, inhibitor | – | unphosphorylated form, enzyme 10 nM | 0.19 ± 0.02 µM
C=CC(=O)Nc1cc(Nc2ncnc(Nc3ccccc3F)n2)c(OC)cc1N(C)CCN(C)C | Epidermal growth factor receptor (EGFR, Homo sapiens, UniProt P00533, L858R/T790M) | EGFR phosphorylation, inhibitor, MSD, refers to: phospho-EGFR | NCI-H1975 (EGFR L858R/T790M) | – | 0.0039 µM

Excerpt of the above:
Structure (SMILES) | target | test | test system | setting | IC50
COc1cc2c(Nc3c(Cl)ccc4c3OCO4)ncnc2cc1OCCCN1CCN(C(=O)CCCC(=O)NCc2ccc(COc3nc(N)nc4[nH]cnc34)cc2)CC1 | Proto-oncogene tyrosine-protein kinase Src, SH3-SH2-kinase domains (SRC, Gallus gallus, UniProt P00523) | enzyme activity, inhibitor | – | unphosphorylated form, enzyme 10 nM | 0.19 ± 0.02 µM
